Measured values collected from several papers.
A part holds a random share of what one study measured.

Series 1 — observed: enzyme activity; mode: inhibitor; tested at: 0.5 µM; reference: control; measurement: remaining activity
Target: Protein kinase C beta type, isoform beta-II (PRKCB, Homo sapiens, UniProt P05771)
Chain of UniProt P05771 (whole entry, looked up): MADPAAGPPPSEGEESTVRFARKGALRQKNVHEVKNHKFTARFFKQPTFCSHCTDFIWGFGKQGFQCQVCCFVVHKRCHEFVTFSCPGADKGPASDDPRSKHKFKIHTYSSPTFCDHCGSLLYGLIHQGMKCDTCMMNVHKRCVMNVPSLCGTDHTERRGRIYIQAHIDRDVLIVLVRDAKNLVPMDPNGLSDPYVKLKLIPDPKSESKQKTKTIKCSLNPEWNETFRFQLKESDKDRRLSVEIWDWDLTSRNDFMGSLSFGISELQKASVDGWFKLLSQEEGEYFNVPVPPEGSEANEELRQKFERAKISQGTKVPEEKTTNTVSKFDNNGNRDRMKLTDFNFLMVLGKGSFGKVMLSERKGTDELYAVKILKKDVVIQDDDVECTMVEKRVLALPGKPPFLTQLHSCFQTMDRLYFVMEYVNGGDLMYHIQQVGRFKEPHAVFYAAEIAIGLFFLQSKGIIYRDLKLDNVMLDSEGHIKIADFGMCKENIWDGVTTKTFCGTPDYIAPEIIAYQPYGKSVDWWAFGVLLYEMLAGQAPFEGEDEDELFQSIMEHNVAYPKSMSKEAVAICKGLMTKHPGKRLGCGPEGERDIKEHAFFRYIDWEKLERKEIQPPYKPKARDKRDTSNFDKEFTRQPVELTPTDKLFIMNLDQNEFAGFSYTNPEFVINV
O=C(Nc1cccc(Nc2nccc(Nc3cccc(C(F)(F)F)c3)n2)c1)C1CC1: 98%
CCN(CC)C(=O)c1ccc(Nc2nc(OCC3CCCCC3)c3[nH]cnc3n2)cc1: 95%
COc1cc2ncnc(Nc3ccc(O)c(Br)c3)c2cc1OC: 98.7%
O=c1cc(-c2cccc3c2Sc2ccccc2S3)oc(N2CCOCC2)c1: 105%
COc1cc2c(cc1OC)-c1[nH]nc(Nc3cccc(F)c3)c1C2: 103%
O=C1Nc2ccc(Cl)cc2C1=Cc1cc(Cl)c(O)c(Cl)c1: 97.5%
CCN(CC)CCNC(=O)c1c(C)[nH]c(/C=C2\C(=O)Nc3ccc(Cl)cc32)c1C: 110%
Cc1nc2cc3nc(-c4cccs4)cnc3cc2n1C: 121%
COc1cc2ncnc(Nc3cccc(Cl)c3)c2cc1OC: 95.5%
Nc1cccc(-c2cc3c(Oc4cccc(O)c4)ncnc3[nH]2)c1: 97.5%
O=C(NC(NC(=S)Nc1ccc(F)c([N+](=O)[O-])c1)C(Cl)(Cl)Cl)C(c1ccccc1)c1ccccc1 (stereo not shown): 107%
C[C@@H]1CCN(C(=O)CC#N)C[C@@H]1N(C)c1ncnc2[nH]ccc12: 88.1%
N#Cc1c(NC(=O)c2cccc3ccccc23)sc2c1CCCC2: 104%
c1ccc(-c2[nH]ncc2-c2ccnc3ccccc23)nc1: 92.1%
Ic1cccc(CSc2nnc(-c3ccncc3)o2)c1: 91.2%
CCN(CC)CCNC(=O)c1c(C)[nH]c(/C=C2\C(=O)Nc3ccc(F)cc32)c1C: 104%
Cc1cn(-c2cc(NC(=O)c3ccc(C)c(Nc4nccc(-c5cccnc5)n4)c3)cc(C(F)(F)F)c2)cn1: 96.3%
Cc1cc2ncc(-c3ccccc3)nc2cc1C: 124%
c1ccc(-c2cnc(Nc3ccc(OCCN4CCCC4)cc3)s2)cc1: 104%
CCOc1nc(NC(=O)Cc2cc(OC)ccc2OC)cc(N)c1C#N: 105%
Cn1nc2c3c(cccc31)C(=O)c1ccccc1-2: 97.8%
CN(C)C[C@H]1CCn2c(c(C3=C(c4cn(C)c5ccccc45)C(=O)NC3=O)c3ccccc32)C1: 2.29%
O=C1c2ccccc2-c2n[nH]c3cccc1c23: 99.3%
N#C/C(=C\c1ccc(O)c(O)c1)C(=O)NCc1ccccc1: 99.8%

Series 2 — observed: binding; method: radioligand binding; tested at: 10 µM; measurement: inhibition
Target: Sigma non-opioid intracellular receptor 1 (SIGMAR1, Homo sapiens, UniProt Q99720)
Chain of UniProt Q99720 (whole entry, looked up): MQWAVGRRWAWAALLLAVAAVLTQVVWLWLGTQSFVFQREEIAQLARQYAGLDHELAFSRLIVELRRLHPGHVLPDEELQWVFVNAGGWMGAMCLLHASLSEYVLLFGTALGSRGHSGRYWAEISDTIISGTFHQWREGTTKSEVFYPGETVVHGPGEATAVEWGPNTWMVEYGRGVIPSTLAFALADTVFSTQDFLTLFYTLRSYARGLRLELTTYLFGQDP
Cc1cc(C)c(-n2ccn3nc(-c4cccnc4)cc23)cc1NC(=O)c1cc(C#N)cc(S(F)(F)(F)(F)F)c1: -4.84%
Cc1nccc(COC(=O)N2C[C@@H]3[C@@H](CNC(=O)c4ccc5[nH]nnc5c4)[C@@H]3C2)n1: 3.21%
CC1=C(C#N)[C@@H](c2ccc3[nH]nc(C)c3c2)C(C#N)=C(c2ccc(Cl)cc2)N1: 14.6%
CC(C)(O)c1cncc(-c2nc3ccc(F)cc3n2C2CC2)c1: 27.7%
O[C@]1(C(F)(F)F)CCCC[C@H]1Nc1ccc(F)cc1: 36.2%
O=C(Nc1cnc(Oc2ccc(F)cc2)nc1)N1CCc2ncccc2[C@@H]1c1ccc(F)cc1: 64.4%
CC1=C(C#N)C(c2ccc3c(c2)c(NC(=O)c2ccccc2C)nn3C)C(C#N)=C(C)N1: 37.9%
CS(=O)(=O)NCC[C@H](NC(=O)c1cncc2c1cnn2-c1ccc(F)cc1)c1ccnc(S(C)(=O)=O)c1: 7.62%
COc1cccc(CNC(=O)c2nc3scc(COCc4ccc(C(=O)O)cc4)c3c(=O)[nH]2)c1: -13.8%
O=C(Nc1cccnn1)N1CC(CC=Cc2cncc(Oc3ccc(C(F)(F)F)cn3)n2)C1: 32.2%
CC(C)CC(=O)N1CCc2nc(-c3ccc(Br)cc3)nc(N(C)Cc3ccccc3)c2C1: 49.4%
CCOC(=O)c1cc2cc(-c3cc(C(=O)NCc4ccc(C(=O)O)cc4)nn3C)ccc2[nH]1: 14.6%
COCc1nc2cnc3cc(-c4c(C)noc4C)c(OC[C@H]4CCNC4)cc3c2n1[C@H](C)c1ccccc1: 38.5%
Cc1c(N2CCCC2)nc2ccc(Br)cc2c1C(=O)NC[C@H](CCC(=O)O)c1ccccc1Cl: -18.5%
Cc1cc(-n2nc(Cc3cc(F)cc(C(F)(F)F)c3)nc2C)ccc1C(N)=O: 5.85%
O=C(Nc1cccnn1)N1CCC(=Cc2cccc(Oc3ccc(C(F)(F)F)cn3)c2)CC1: 88.5%
CC(=O)N1CCC(c2ccc(C(=O)NC(=N)N)cc2C(F)(F)F)CC1: -27.9%
COCCc1ccc(-c2c(C)nc3c(N4CCOCC4)ccnn23)cn1: -2.53%
Cc1nc(Cc2cccc(C(F)(F)F)c2)sc1-c1ccc(C(N)=O)nc1: 11.7%

Series 3 — target: His6 tag; method: AlphaScreen counter screen; tested at: concentration not given; measurement: inhibition
COc1ccc(Cl)c(Nc2nc3ccccc3nc2NS(=O)(=O)c2cccc(NC(=O)C(C)(C)N)c2)c1: -21.6%
CCOC(=O)c1ccc(NC(=O)Nc2ccc(Cl)c(Cl)c2)cc1: -16.3%
Brc1c(Br)c(Br)c2[nH]nnc2c1Br: 4.3%
Cc1cc(C(=O)NOCCO)c(Nc2ccc(I)cc2F)n(C)c1=O: 6.5%
Cc1c(C(=O)OC(C)C)sc2nc[nH]c(=O)c12: 4.65%
O=C1NC(=O)C(=Cc2ccc3c(c2)OC(F)(F)O3)S1: -0.15%
COc1cc(Nc2ncc(F)c(Nc3ccc4c(n3)N(COP(=O)(O)O)C(=O)C(C)(C)O4)n2)cc(OC)c1OC: -9.85%
COC(=O)C=Cc1cc(O)ccc1O: 0.75%
CCOC(=O)CNC(=O)CSc1ccc2nnc(-c3ccc(Cl)cc3)n2n1: -11.8%
O=C(Nc1ccncc1)Nc1c(Cl)cc(Cl)cc1Cl: 0.4%
Cc1c(C(=O)Nc2ccccc2)sc2nc[nH]c(=O)c12: 8.35%
O=C(CSc1ccc2nnc(-c3cccc(F)c3)n2n1)Nc1cccc(Cl)c1: 4.25%
O=C(NCc1ccccn1)c1n[nH]c2ccccc12: 4.5%
COc1ccc(-c2ccc3c(N4CCOC[C@@H]4C)nc(N4CCOC[C@@H]4C)nc3n2)cc1CO: -45.5%

Series 4 — observed: RNA clamping; method: fluorescence polarization; tested at: concentration not given; together with: FAM-labelled poly r(AG)8 RNA; direction: higher = more clamping; measurement: fluorescence polarization change
Target: Eukaryotic initiation factor 4A-I (EIF4A1, Homo sapiens, UniProt P60842)
Chain of UniProt P60842 (whole entry, looked up): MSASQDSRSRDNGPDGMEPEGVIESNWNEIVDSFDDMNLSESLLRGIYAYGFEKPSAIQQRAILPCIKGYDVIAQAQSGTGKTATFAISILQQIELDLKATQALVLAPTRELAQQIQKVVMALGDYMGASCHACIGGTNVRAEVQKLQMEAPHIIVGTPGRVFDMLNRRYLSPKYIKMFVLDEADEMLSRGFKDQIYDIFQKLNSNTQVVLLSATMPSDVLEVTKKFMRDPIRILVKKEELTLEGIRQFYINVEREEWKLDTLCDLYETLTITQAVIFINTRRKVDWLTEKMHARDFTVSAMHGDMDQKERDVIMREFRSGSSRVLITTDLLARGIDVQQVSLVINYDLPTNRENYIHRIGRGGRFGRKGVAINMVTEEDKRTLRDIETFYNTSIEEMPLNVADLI
C=CCN1c2cc(OC)cc(OC)c2[C@]2(O)[C@H](O)[C@H](C(=O)OC)[C@@H](c3ccccc3)[C@]12c1ccc(OC)cc1: 0.5 mP
COc1ccc([C@@]23Oc4cc(OC)cc(OC)c4[C@]2(O)[C@H](O)[C@H](CO)[C@H]3c2ccccc2)cc1: 51.2 mP
C#CCOc1ccc(-c2nc(OCC#C)c3c(n2)[C@@]2(O)c4c(OC)cc(OC)cc4O[C@@]2(c2ccc(OC)cc2)[C@@H]3c2ccccc2)cc1: -15 mP
COc1cc(OC)c2c(c1)O[C@@]1(c3ccc(OC)c(O)c3)[C@H](c3ccccc3)[C@@H](C(=O)c3ccco3)[C@@H](O)[C@@]21O: 9.6 mP
COc1ccc([C@@]23Oc4cc(OC)cc(OC)c4[C@@](O)(C2=O)[C@H](C(=O)N(C)OC)[C@H]3c2ccccc2)cc1: 13 mP
CONC(=O)[C@H]1[C@@H](O)[C@@]2(O)c3c(OC)cc(F)cc3O[C@@]2(c2ccc(Br)cc2)[C@@H]1c1ccccc1: 80.4 mP
COc1ccc([C@@]23Oc4cc(OC)cc(OC)c4[C@]2(O)[C@H](O)[C@H](C(=O)c2cc4cccc(OC)c4o2)[C@H]3c2ccccc2)cc1: 0.3 mP

Excerpt of the above (series 3):
CCOC(=O)c1ccc(NC(=O)Nc2ccc(Cl)c(Cl)c2)cc1: -16.3%
Brc1c(Br)c(Br)c2[nH]nnc2c1Br: 4.3%
Cc1cc(C(=O)NOCCO)c(Nc2ccc(I)cc2F)n(C)c1=O: 6.5%
Cc1c(C(=O)OC(C)C)sc2nc[nH]c(=O)c12: 4.65%
O=C1NC(=O)C(=Cc2ccc3c(c2)OC(F)(F)O3)S1: -0.15%
COc1cc(Nc2ncc(F)c(Nc3ccc4c(n3)N(COP(=O)(O)O)C(=O)C(C)(C)O4)n2)cc(OC)c1OC: -9.85%
COC(=O)C=Cc1cc(O)ccc1O: 0.75%
CCOC(=O)CNC(=O)CSc1ccc2nnc(-c3ccc(Cl)cc3)n2n1: -11.8%
O=C(Nc1ccncc1)Nc1c(Cl)cc(Cl)cc1Cl: 0.4%
Cc1c(C(=O)Nc2ccccc2)sc2nc[nH]c(=O)c12: 8.35%
O=C(CSc1ccc2nnc(-c3cccc(F)c3)n2n1)Nc1cccc(Cl)c1: 4.25%
